Experimental data collected from several papers.
Parts stem from different laboratories: compare values within a part only. Changes are numbered by the printed parent chain.

Series 1
Target: UBE2H UBC core domain (UniProt P62256)
UniProt P62256, sequence (whole entry, looked up): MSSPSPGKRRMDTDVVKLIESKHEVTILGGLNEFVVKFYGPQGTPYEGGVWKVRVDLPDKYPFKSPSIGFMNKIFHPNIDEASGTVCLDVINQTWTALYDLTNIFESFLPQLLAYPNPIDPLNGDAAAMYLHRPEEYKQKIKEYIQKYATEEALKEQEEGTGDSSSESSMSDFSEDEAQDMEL
Technique: yeast two-hybrid
Matrix: yeast
Notes: mostly zero background
Reference: not given
Direction: higher = stronger interaction
B1: MKRN3 RING domain (UniProt Q13064); chain FAVQRGMDKVCGICMEVVYEKANPNDRRFGILSNCNHSFCIRCIRRWRSARQFENRIVKSCPQCRVTSELVIPSE
B2: CNOT4 RING domain (UniProt O95628); chain MSRSPDAKEDPVECPLCMEPLEIDDINFFPCTCGYQICRFCWHRIRTDENGLCPACRKPYPED
B3: TRIM41 RING domain (UniProt Q8WV44); chain PVQTLQEEAVCAICLDYFTDPVSIGCGHNFCRVCVTQLWGGEDEEDRDELDREEEEEDGEEE
B4: RNF186 RING domain (UniProt Q9NXI6); chain HSGSTECDLECLVCREPYSCPRLPKLLACQHAFCAICLKLLLCVQDNTWSITCPLCRKVTAVPGGLI
B5: ZMYND11 RING domain (UniProt Q15326); chain DEIDWETENHDWYCFECHLPGEVLICDLCFRVYHSKCLSDEFRLRDSSSPWQCPVCRSIKKKNTNKQEM
B6: RNF6 RING domain (UniProt Q9Y252); chain NSIDSELGKICSVCISDYVTGNKLRQLPCMHEFHIHCIDRWLSENCTCPICRQPVLGSNIAN
`B1 (MKRN3 RING domain)`: “lacZ reporter activity” 0.
`ASEEEFQFLRCQQCQAEAKCPKLLPCLHTLCSGCLEASGMQCPICQAPWPLGADTP (PML RING domain (UniProt P29590))` — result for “lacZ reporter activity”: 0.
For `DDVLTKDAGECVICLEELLQGDTIARLPCLCIYHKSCIDSWFEVNRSCPEHPAD (ZNRF1 RING domain (UniProt Q8ND25))`, “lacZ reporter activity” read 0.
`B2 (CNOT4 RING domain)` — result for “lacZ reporter activity”: 0.
For `LVKDFNPYITCYICKGYLIKPTTVTECLHTFCKTCIVQHFEDSNDCPRCGNQVHETNPLE (PCGF5 RING domain (UniProt Q86SE9))`, “lacZ reporter activity” read 0.
Under “lacZ reporter activity”, `B3 (TRIM41 RING domain)` is recorded as 0.
For `ASPKIFQKTKCSICNSALELPSVHFLCGHSFHQHCFESYSESDADCPTCLPENRKVMDMI (VPS11 RING domain (UniProt Q9H270))`, “lacZ reporter activity” read 0.
Under “lacZ reporter activity”, `B4 (RNF186 RING domain)` is recorded as 5120.
`B5 (ZMYND11 RING domain)` — result for “lacZ reporter activity”: 0.
`B6 (RNF6 RING domain)`: “lacZ reporter activity” 0.

Series 2
Target: ABI1, truncated, D143A, DHFR fusion (Arabidopsis thaliana)
Technique: DHFR PCA, deep sequencing
Matrix: yeast
Notes: methotrexate growth selection, single substitutions
Added: (+)-ABA 1.4 µM
Reference: wild-type fitted maximum
Direction: higher = stronger binding
Starting sequence: PYL1, truncated, DHFR fusion (Arabidopsis thaliana); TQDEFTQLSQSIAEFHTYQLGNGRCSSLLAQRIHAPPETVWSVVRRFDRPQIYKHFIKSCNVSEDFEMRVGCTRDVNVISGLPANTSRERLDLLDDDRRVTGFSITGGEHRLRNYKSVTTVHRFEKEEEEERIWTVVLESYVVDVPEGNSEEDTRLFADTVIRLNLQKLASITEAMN
`V143I`: “relative binding score” -6.18%.
`R69Q` — result for “relative binding score”: 58.2%.
Under “relative binding score”, `I79H` is recorded as 48.5%.
For `L169K`, “relative binding score” read -13.3%.
`A158E` — result for “relative binding score”: -4.87%.
`R113F` — result for “relative binding score”: 15%.
Under “relative binding score”, `G21N` is recorded as 32.4%.
Under “relative binding score”, `S26C` is recorded as 42.9%.
Under “relative binding score”, `E127W` is recorded as 39.6%.
For `T6E`, “relative binding score” read 78.8%.
`T173S` — result for “relative binding score”: 46.1%.
For `V43F`, “relative binding score” read 2.92%.
`D96N` — result for “relative binding score”: 19.9%.
For `L28A`, “relative binding score” read 3.35%.
`T119I`: “relative binding score” 4.76%.
`E89A`: “relative binding score” 0.98%.
For `S140P`, “relative binding score” read 11.4%.
For `E130R`, “relative binding score” read 56.3%.
For `R46E`, “relative binding score” read 0.655%.
`I79N`: “relative binding score” 8.52%.
`T6P` — result for “relative binding score”: 72.6%.
Under “relative binding score”, `I52S` is recorded as 39%.
`Q51M` — result for “relative binding score”: 3.1%.
For `N85I`, “relative binding score” read 57.4%.
Under “relative binding score”, `W134A` is recorded as 36%.

Series 3
Target: Ras GTPase-activating protein-binding protein 1, RRM domain (G3BP1, Homo sapiens, UniProt Q13283)
UniProt Q13283, sequence (whole entry, looked up): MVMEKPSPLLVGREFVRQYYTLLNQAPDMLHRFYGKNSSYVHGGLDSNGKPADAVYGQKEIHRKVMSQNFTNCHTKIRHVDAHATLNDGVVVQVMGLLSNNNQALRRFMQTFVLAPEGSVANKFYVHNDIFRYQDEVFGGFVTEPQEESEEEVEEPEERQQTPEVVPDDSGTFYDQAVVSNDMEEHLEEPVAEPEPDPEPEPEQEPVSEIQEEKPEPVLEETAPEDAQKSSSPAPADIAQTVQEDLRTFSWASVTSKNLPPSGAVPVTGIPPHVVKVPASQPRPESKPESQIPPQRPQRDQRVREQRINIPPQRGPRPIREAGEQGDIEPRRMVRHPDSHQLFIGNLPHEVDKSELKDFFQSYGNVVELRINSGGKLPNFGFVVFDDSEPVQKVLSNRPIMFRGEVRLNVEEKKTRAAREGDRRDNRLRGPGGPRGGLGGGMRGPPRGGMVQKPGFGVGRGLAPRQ
Technique: RNA Bind-n-Seq
Form: RNA
Matrix: in vitro
Concentration: 1 µM
Notes: whole 134-nt RNA, ends assumed
Added: 150 mM KCl
Reference: input library
Direction: higher = stronger binding
`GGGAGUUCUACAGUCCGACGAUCACCAAAAAGGUGGGCAUCUUUGGGAAGUGGGGCAAGGGGGGGAUAGGGAGGGGGGUAACACUUUGGGAACAGGUGGUCCCAGGUCGUUUCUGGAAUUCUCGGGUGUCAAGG` has a log2 enrichment of -0.377.
`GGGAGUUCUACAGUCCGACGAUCACCAUGCUGGUGGGCAUCUUUGGGAAGUGGGGCAAGGGGGGGAUAGGGAGGGGGGUAACACUUUGGGAACAGGUGGUCCCAGGUCGUUUCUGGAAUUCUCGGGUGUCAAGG` has a log2 enrichment of -0.69.
The log2 enrichment of `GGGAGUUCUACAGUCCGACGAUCACCAUGCAGGUGGGCAUCUUUGGGAAGUGGGGCAAGGGGGGGAUAGGGAGGGGGGUAACACUUUGGGAAAAGGUGGUCCCAGGUCGUUUCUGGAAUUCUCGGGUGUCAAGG` is reported as -0.627.
`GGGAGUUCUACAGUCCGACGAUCAAGUCCUGUGCUACACAUCGUAUGUACCGAAUCGGGGAAAGGGGAAAGGAAAGGGGAAAGUAUUAUGUUACGCCGUUCGGAUCUGCACUUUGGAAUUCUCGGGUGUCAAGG` gave a log2 enrichment of 0.125.
The log2 enrichment of `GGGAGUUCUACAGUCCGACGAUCUGGGAGGUGGAUUUUGUUUAUUUUUUUAGCUCAUUUCCAGUGGUGGGAAUUUUUUUUUAAUAUGUGUCAUGAAUAAAGUUGUUUUUGAAAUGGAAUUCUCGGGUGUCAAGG` is reported as 1.07.
For `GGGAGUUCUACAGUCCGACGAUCUCAAGUCCUGUGCUACACAUCGUAUGUACCGAAUCGGGGAAAGGGAAAGGAAAGGAAAGUAUUAUGUUACGCCGUUCGGAUCUGCACUUCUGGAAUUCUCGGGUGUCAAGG`, the log2 enrichment was -0.304.
For `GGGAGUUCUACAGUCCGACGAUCUCCUGUGCUACACAUCGUAUGUACCGAAUCGGGAAAAAAAGGAAAAAAAGGAAAAAAAGGAAAGUAUUAUGUUACGCCGUUCGGAUCUGCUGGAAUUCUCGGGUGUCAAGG`, the log2 enrichment was 0.131.
`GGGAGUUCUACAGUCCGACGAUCACGAUGCAGGUGGGCAUCUUUGGGAAGUGGGGCAAGGGGGGGAUAGGGAGGGGGGUAACACUUUGGGAACAGGUGGUCCCAGGUCGUUUCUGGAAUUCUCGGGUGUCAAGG` has a log2 enrichment of -0.652.
The log2 enrichment of `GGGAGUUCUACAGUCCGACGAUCCCUGUGCUACACAUCGUAUGUACCGAAUCGGGGAAAAAAGGGAAAAAAGGGGAAAAAAGGAAAGUAUUAUGUUACGCCGUUCGGAUCUGCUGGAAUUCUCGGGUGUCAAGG` is reported as 0.00255.

Series 4
Target: CCNA1, cyclin fold, Cln2 fusion (human)
Technique: yeast growth competition, sequencing
Matrix: yeast
Notes: weak parent motif
Reference: not given
Direction: higher = stronger binding
Starting sequence: MASTL docking peptide (human); PMIAKNLMCELDE; partner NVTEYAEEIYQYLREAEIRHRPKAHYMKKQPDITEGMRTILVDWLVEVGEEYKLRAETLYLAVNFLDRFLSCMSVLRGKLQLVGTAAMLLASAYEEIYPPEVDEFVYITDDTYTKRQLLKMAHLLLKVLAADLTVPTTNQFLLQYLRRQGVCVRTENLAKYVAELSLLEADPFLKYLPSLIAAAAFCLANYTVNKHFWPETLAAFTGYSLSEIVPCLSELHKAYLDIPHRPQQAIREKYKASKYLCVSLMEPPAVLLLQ
For `L7H`, “normalised enrichment score” read -0.915.
Under “normalised enrichment score”, `N6P` is recorded as -0.148.
For `N6Q`, “normalised enrichment score” read 0.219.
For `C9K`, “normalised enrichment score” read 0.0488.
For `L11T`, “normalised enrichment score” read 0.162.
`K5L` — result for “normalised enrichment score”: 0.0855.
`N6E`: “normalised enrichment score” -0.305.
`E10L`: “normalised enrichment score” 0.391.
For `L11A`, “normalised enrichment score” read -0.0253.
`L7E`: “normalised enrichment score” 0.344.
`M8S`: “normalised enrichment score” 0.171.
Under “normalised enrichment score”, `M2V` is recorded as -0.0809.
Under “normalised enrichment score”, `L11Y` is recorded as 0.186.
`I3Y` — result for “normalised enrichment score”: -0.0127.
Under “normalised enrichment score”, `L11K` is recorded as 0.156.
Under “normalised enrichment score”, `I3M` is recorded as -0.132.
For `M2I`, “normalised enrichment score” read -0.00463.
`L11Q` — result for “normalised enrichment score”: 0.256.
